Results of several laboratories.
Each line is one published result; not all experiments were run side by side.
Target: Calcium/calmodulin-dependent protein kinase type 1D (CAMK1D, Homo sapiens, UniProt Q8IU85)
Chain of UniProt Q8IU85 (whole entry, unmodified, looked up): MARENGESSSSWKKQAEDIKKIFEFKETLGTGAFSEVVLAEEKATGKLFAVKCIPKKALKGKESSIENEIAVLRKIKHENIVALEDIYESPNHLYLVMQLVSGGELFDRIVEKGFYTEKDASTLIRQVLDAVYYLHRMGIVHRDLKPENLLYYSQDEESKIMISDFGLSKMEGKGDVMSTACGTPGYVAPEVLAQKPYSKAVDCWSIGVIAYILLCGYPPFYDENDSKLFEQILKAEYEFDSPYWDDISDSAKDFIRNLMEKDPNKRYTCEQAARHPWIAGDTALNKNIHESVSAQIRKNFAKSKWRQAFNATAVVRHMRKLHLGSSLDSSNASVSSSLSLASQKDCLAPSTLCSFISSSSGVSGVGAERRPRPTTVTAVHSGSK

SMILES	assay	test system	setting	scale	measurement	result
NC(=O)C[C@H]1CCc2sc3ncnc(O[C@H]4CC[C@H](N5CCOCC5)CC4)c3c21	enzyme activity, inhibitor	–	10 µM	–	inhibition	1%
Cc1cnc2nc1Nc1cccc(c1)COC/C=C/COCc1cc(ccc1OCCN1CCOCC1)N2	binding	–	0.1 µM	–	remaining binding	85%
O=C=[N][Ru-4]123([n]4c5ccc(O)cc5c5c6c(c7cc(F)c[n+]1c7c54)C(=O)NC6=O)[S+]1CC[S+]2CC[S+]3CC1 (stereo not shown)	enzyme activity	–	100 nM, human enzyme, with: 10 µM ATP	reference: untreated	remaining activity	49%
CNC(=O)C[C@H](Cc1ccc(C#N)cc1)NC(=O)c1cc(-c2ccc(CN[C@H](C)c3ccc(C)cc3)o2)ccc1Cl	enzyme activity, inhibitor	–	1 µM	–	activity vs control	94%
Nc1ncc2c(n1)-c1c([nH]c3ccc(C4=CCOCC4)cc13)CCC2	binding, competition with immobilised ligand	–	1 µM	–	remaining binding	92%
CS(=O)(=O)Nc1cccc(-c2csc3cnc(Nc4ccc(N5CCN(CCCCCOc6cccc7c6C(=O)N(C6CCC(=O)NC6=O)C7=O)CC5)cc4)nc23)c1 (stereo not shown)	target engagement in cells, inhibitor, chemoproteomics	MOLT-4	1 µM	–	inhibition	-17.9%
CCn1cc(C(=O)O)c(=O)c2c(N)c(F)c(NC3CCCCC3)cc21	kinase activity	–	0.1 µM, with: ATP at Km	–	inhibition	2.5%
COc1cc(Nc2nc(C)cc(-c3cnn4nc(OC)ccc34)n2)cc(C(F)(F)F)c1	inhibitor	–	1 µM	reference: control	remaining activity	84%
Cc1ccc(-c2c(/C=C(\C#N)C(=O)NC(C)C)n(CCCO)c3ncnc(N)c23)cc1	cell-free assay, competition with immobilised ligand	–	1 µM	–	remaining binding	100%
C=CC(=O)Nc1cccc(-c2cnc3[nH]cc(C(=O)NC(C)(C)C)c3n2)c1	enzyme activity, inhibitor	–	0.1 µM	–	inhibition	13%
O=C(Cc1ccc(OCc2ccccc2)cc1)NC1(C(=O)O)CCN(C(=O)c2ccc(-c3cccc(Cl)c3)cc2)CC1	enzyme activity, inhibitor	–	10 µM	–	activity vs control	106%
C=CC(=O)N1CCCC(n2c(=O)c3ncccc3n(Cc3ccc(Oc4ccccc4)cc3)c2=O)C1 (stereo not shown)	thermal proteome profiling	–	10 µM, destabilized proteins, unit not given	reference: vehicle	melting temperature shift	-10.2
CN1CC[C@@H](COc2cnc(C#N)cc2-c2ccn3nc(NC(=O)C4CC4)cc3c2)C1	enzyme activity, inhibitor	–	1 µM	–	inhibition	19%
Cc1cccc(O[C@H]2CCC[C@@H](C(C)CNCc3ccncc3)C2)c1 (relative stereo)	enzyme activity, inhibitor	–	1 µM	–	inhibition	2%
C=CC(=O)N1CCc2ccc(-n3c(=O)ccc4cnc5ccc(-c6cnn(C)c6)cc5c43)cc21	KINOMEscan	–	1 µM	reference: DMSO control	remaining binding	100%
COc1c(OCCCN2CCOCC2)ccc2c1N=C(NC(=O)c1cnc(N)nc1)N1CCN=C21	kinase activity, inhibitor	–	1 µM	reference: untreated control	remaining activity	103%

Some of these lines once more:
SMILES	assay	test system	setting	scale	measurement	result
O=C=[N][Ru-4]123([n]4c5ccc(O)cc5c5c6c(c7cc(F)c[n+]1c7c54)C(=O)NC6=O)[S+]1CC[S+]2CC[S+]3CC1 (stereo not shown)	enzyme activity	–	100 nM, human enzyme, with: 10 µM ATP	reference: untreated	remaining activity	49%
CNC(=O)C[C@H](Cc1ccc(C#N)cc1)NC(=O)c1cc(-c2ccc(CN[C@H](C)c3ccc(C)cc3)o2)ccc1Cl	enzyme activity, inhibitor	–	1 µM	–	activity vs control	94%
